Assay results from different studies.
Protocols differ between the studies behind these lines.

SMILES	test system	conditions	measurement	result
COc1cccc(-c2ccc(NC(=O)C3=C(C(=O)O)CCC3)c(F)c2)c1	human, male, plasma	oral, 50 mg once daily, day 13, geometric mean	apparent volume Vz/F	12.9 L
O=C(NC[C@H](O)CO)c1ccncc1Nc1ccc(I)cc1F	human	oral, 60 mg, single dose with FOLFIRI	apparent volume of distribution	348 L
NC1(c2ccc(-c3nc4ccn5c(=O)[nH]nc5c4cc3-c3ccccc3)cc2)CCC1	human, expansion, reduced dose	oral, 90 mg, together with: dinaciclib 9 mg/m2	apparent volume of distribution	3350 L
CO[C@H]1C[C@@H]2CC[C@@H](C)[C@@](O)(O2)C(=O)C(=O)N2CCCC[C@H]2C(=O)O[C@H]([C@H](C)C[C@@H]2CC[C@@H](O)[C@H](OC)C2)CC(=O)[C@H](C)/C=C(\C)[C@@H](O)[C@@H](OC)C(=O)[C@H](C)C[C@H](C)/C=C/C=C/C=C/1C	human	oral, dose not given	apparent oral clearance	18.7 L/h
COc1cc(NC(=O)CCN2CCC(OC(=O)Nc3ccccc3-c3ccccc3)CC2)c(Cl)cc1CNC[C@H](O)c1ccc(O)c2[nH]c(=O)ccc12	human COPD patients, plasma	inhaled, 800 µg once daily or 400 µg twice daily, day 28, log population model estimate	apparent peripheral volume	9.97 L
CC(C)NC[C@@H](C(=O)N1CCN(c2ncnc3c2[C@H](C)C[C@H]3O)CC1)c1ccc(Cl)cc1	human, Severe hepatic function, plasma	oral, 100 mg single dose, NCI classification, geometric mean	apparent volume of distribution	12300 L
C=CC[C@@H]1/C=C(\C)C[C@H](C)C[C@H](OC)[C@H]2O[C@@](O)(C(=O)C(=O)N3CCCC[C@H]3C(=O)O[C@H](/C(C)=C/[C@@H]3CC[C@@H](O)[C@H](OC)C3)[C@H](C)[C@@H](O)CC1=O)[C@H](C)C[C@@H]2OC	healthy humans, whole blood	oral, 5 mg single dose	apparent oral clearance (CL/F)	18.4 L/h
CC(C)NCC1CCc2cc(CO)c([N+](=O)[O-])cc2N1 (stereo not shown)	healthy human, plasma	oral, 1000 mg	apparent oral clearance	43 mL/min/kg
Cc1nc2c(F)cc(-c3nc(Nc4ccc(CN5CCNCC5)cn4)ncc3F)cc2n1C(C)C	human patients	oral, 150 mg single, geometric mean	apparent hepatic clearance	21.6 L/h
CCN(CC)CCNC(=O)c1c(C)[nH]c(/C=C2\C(=O)Nc3ccc(F)cc32)c1C	human, hepatocellular carcinoma	oral, 37.5 mg once daily	apparent clearance (CL/F)	30.3 L/h
C[C@@H](Oc1cc(-c2cnn(C3CCNCC3)c2)cnc1N)c1c(Cl)ccc(F)c1Cl	healthy human	oral, 250 mg single, day 5, geometric mean, together with: esomeprazole 40 mg/day	apparent oral clearance	118 L/h
O=C(c1nc2n(n1)[C@H](c1ccccc1)C[C@@H]2F)C1CC1	human, plasma	oral, 75 mg, single dose, high-fat meal, geometric mean	apparent volume of distribution (Vz/F)	111 L
CCCOc1ccc([C@H]2CNC(=O)N2c2ccc3[nH]cnc3c2)cc1	human volunteers fasted, plasma	oral solution, 10 mg single dose, day 1, geometric mean	apparent terminal half-life	2.11 h

Some of these lines once more:
SMILES	test system	conditions	measurement	result
COc1cc(NC(=O)CCN2CCC(OC(=O)Nc3ccccc3-c3ccccc3)CC2)c(Cl)cc1CNC[C@H](O)c1ccc(O)c2[nH]c(=O)ccc12	human COPD patients, plasma	inhaled, 800 µg once daily or 400 µg twice daily, day 28, log population model estimate	apparent peripheral volume	9.97 L
CC(C)NC[C@@H](C(=O)N1CCN(c2ncnc3c2[C@H](C)C[C@H]3O)CC1)c1ccc(Cl)cc1	human, Severe hepatic function, plasma	oral, 100 mg single dose, NCI classification, geometric mean	apparent volume of distribution	12300 L
